Measurements gathered from unrelated publications.
Each line is one published result; not all experiments were run side by side. ± marks the error that the study gave.
Organism: Plasmodium falciparum

Compound	observed	method	cells	strain	time	setting	EC50
O=C(O)c1cccc(C(=O)NCc2ccc(C(=O)NNC(=O)[C@H]3O[C@@H]3C(=O)N(Cc3cccc4ccccc34)Cc3cccc4ccccc34)cc2)c1	parasite replication	flow cytometry			75 h	synchronous ring stage	70 ± 20 µM
Cc1cn([C@@H]2C[C@H](O)[C@@H](CNC(=O)Nc3ccc(Cl)cc3)O2)c(=O)[nH]c1=O	parasite growth	SYBR Green		3D7	48 h	blood stage	~2 µM
O=C(/C=C/c1cccc(O)c1)c1ccc(F)cc1	parasite growth	pLDH		3D7, chloroquine-sensitive	72 h		26.07 ± 0.03 µM
Cc1cn([C@@H]2C[C@H](O)[C@@H](CNC(=S)Nc3ccc(Cl)c(C(F)(F)F)c3)O2)c(=O)[nH]c1=O	parasite growth	SYBR Green		3D7	48 h	blood stage	~2 µM
Cc1cc(Nc2ccc(S(F)(F)(F)(F)F)cc2)n2nc(C(C)(F)F)nc2n1	liver-stage infection rate		human hepatocytes	NF54			7 µg/mL
O=C(/C=C/c1ccc(O)c(CN2CCOCC2)c1)c1ccc(F)cc1	parasite growth			3D7	72 h	blood stage	> 29.3 µM
Cc1cc(Nc2ccc(C(F)(F)F)nc2)n2nc(C(C)(F)F)nc2n1	parasite growth			laboratory strain panel	72 h	mean over panel	0.028 ± 0.02 µM
Cc1ncc(C(C(=O)N(C)c2ccccc2C)N(Cc2cccc(C(F)(F)F)c2)C2CC2)cn1 (stereo not shown)	parasite growth	SYBR Green		Dd2	72 h		9.8 µM
COC(=O)c1[nH]c(C(=O)OC)c(-c2c[nH]c3ccc(Cl)cc23)c1-c1c[nH]c2ccc(Cl)cc12	parasite growth	SYBR Green		3D7	72 h	blood stage	> 10 µM
CC1CCN(Cc2cc(/C=C/C(=O)c3ccc(Cl)cc3)ccc2O)CC1	parasite growth	pLDH		3D7, chloroquine-sensitive	72 h		17.04 ± 0.02 µM
O=C1C(O)=C([C@H]2CC[C@H](c3ccc(Cl)cc3)CC2)C(=O)c2ccccc21				TM90-C2B			18 µM
COc1ccc(C(F)(F)F)cc1CN(C)C(c1cccnc1)c1nnnn1-c1ccccc1C (stereo not shown)	parasite growth	SYBR Green		Dd2	72 h		2.3 ± 0.4 µM
CCN(CC)CCCC(C)Nc1ccnc2cc(Cl)ccc12 (stereo not shown)	parasite growth			3D7	72 h	blood stage	0.0018 µM
COc1cc2nccc(Oc3ccc(NC(=O)Nc4cc(C(F)(F)F)ccc4F)c(F)c3)c2cc1OC	parasite growth	SYBR Green		3D7		blood stage	> 5 µM
Cc1ncccc1C(c1nnnn1C1CC1)N(C1CC1)C1(c2cccc(C(F)(F)F)c2)CC1 (stereo not shown)	parasite growth	SYBR Green		3D7	72 h		> 30 µM
O=C(/C=C/c1ccc(O)cc1)c1ccc(F)cc1	parasite growth			3D7	72 h	blood stage	> 41.3 µM

Some of these lines once more:
Compound	observed	method	cells	strain	time	setting	EC50
Cc1ncc(C(C(=O)N(C)c2ccccc2C)N(Cc2cccc(C(F)(F)F)c2)C2CC2)cn1 (stereo not shown)	parasite growth	SYBR Green		Dd2	72 h		9.8 µM
